Assay results pooled from the literature.
Compare with care: the assays were run in different laboratories. Several values in a cell are separate wells, animals, samples, runs or records. ± gives the spread as reported.

`COc1cc(O)ccc1CCC(c1ccc(O)cc1)c1cc2c(c(C)c1O)OC(c1ccc(O)cc1)CC2` (mixture of isomers) gave an amount of 361 ± 89 pg/mL blood (measured: LTB4 isomers; human whole blood; 3 µM, with: Escherichia coli).
`CC[C@H](C)[C@H](NC(=O)[C@@H](NC(=O)c1ccnc(Cl)c1Cl)C(C)(C)C)C(=O)N[C@H](C(=O)N[C@H](C(=O)N[C@H](C(=O)N[C@@H](CCC(N)=O)C(=O)N[C@@H](Cc1c[nH]cn1)C(=O)N[C@H](CC(C)C)C(=O)N[C@@H](CO)C(=O)NCCOCCOCC(=O)N[C@@H](CCCCNC(=O)CC[C@@H]1NC(=O)[C@@H](CCCNC(=N)N)NC(=O)[C@H](CCCNC(=N)N)NC(=O)[C@@H](CCCNC(=N)N)NC(=O)[C@H](CCCNC(=N)N)NC(=O)[C@H](Cc2ccc3ccccc3c2)NC(=O)[C@@H](Cc2ccccc2)NC1=O)C(N)=O)[C@@H](C)O)[C@@H](C)CC)C(C)(C)O`: “serum TNF-alpha and IL-6 levels” “decreased” (mouse, acute lung injury, LPS-induced; intravenous, 5 mg/kg, 16 h, with: LPS 10 mg/kg i.p.; reference: vehicle).
With `COC1OC(C)C(OS(=O)(=O)O)C(OC2OC(C)C(OS(=O)(=O)O)C(OC3OC(C)C(OS(=O)(=O)O)C(OC4OC(C)C(OS(=O)(=O)O)C(OC5OC(C)C(OS(=O)(=O)O)C(OC6OC(C)C(OS(=O)(=O)O)C(OC7OC(C)C(OS(=O)(=O)O)C(OC8OC(C)C(OS(=O)(=O)O)C(OS(=O)(=O)O)C8O)C7O)C6O)C5O)C4O)C3O)C2O)C1O` (centres unmarked) the prothrombin time was 14.8 ± 0.3 s (human plasma; 128 µg/mL).
For `CC(=O)[O-].O.O.O.O.[Ni+2].[O-]c1ccc(Br)cc1C=NCCN1CCOCC1`, the inhibition was 14.6% (superoxide scavenging; 80 µM).
With `CN1CCC[C@]1(C)/C=C/S(=O)(=O)NC(=O)Nc1c2c(cc3c1CCC3)CCC2` the IL-1β inhibition was 86.9% (human, whole blood ex vivo; 100 mg twice daily, day 14, 36 h, multiple ascending dose, with: LPS and ATP).
For `C[n+]1cccc2cc(/C=N/NC(=O)C(=O)N/N=C/c3ccc4c(ccc[n+]4C)c3)ccc21`, the ΔTm was 3 ± 0.9 °C (MYC parallel G4 DNA; FRET melting; 1 µM, DNA 0.2 µM).
For `CC(C)(C)NCC(SS(=O)(=O)O)c1ccccc1` (centres unmarked), the liver weight was 2.11 g (Schistosoma mansoni-infected mice; 600 mg/kg single, day 7, perfusion day 44).
`COC1OC(C)C(OC2OC(C)C(O)C(OC3OC(C)C(O)C(OS(=O)(=O)O)C3OS(=O)(=O)O)C2OS(=O)(=O)O)C(OS(=O)(=O)O)C1OS(=O)(=O)O` (centres unmarked) has a prothrombin time of 15.2 ± 0.4 s (human plasma; 128 µg/mL).
With `Nc1nc2cc(CC[C@H]3C[C@@H](n4ccc5c(N)ncnc54)[C@H](O)[C@@H]3O)ccc2cc1Br` the tumour volume was 1010 ± 249 mm3 (NCI-H1048 xenograft, mouse; 3.0 mg/kg/day, day 28).
`COc1ccc(NC(=O)c2ccc3[nH]c(-c4ccc(N(C)C)cc4)nc3c2)cn1` gave a tumour volume of 203 mm3 and 148 mm3 and 92.5 mm3 and 78 mm3 (Lewis lung carcinoma, mice, syngeneic graft, subcutaneous; intraperitoneal, 50 mg/kg daily, day 3).
Under “liver weight decrease”, `CCCC[C@@H](CSS(=O)(=O)O)NCCC` is recorded as 21% (Swiss Webster mice, Schistosoma mansoni infected; 100 mg/kg; reference: vehicle control).
`COC1CN([C@H]2CC[C@H]([C@@]3(C)Oc4c(Cl)cc(C(=O)NCc5c(SC)cc(C)[nH]c5=O)c(C)c4O3)CC2)C1` — result for “log2 fold change”: 0.995 (RNA-seq, measured: DLC1 mouse homolog; mouse, HT-1376 xenograft, whole blood; dose not given; reference: vehicle).
`COC1OC(C)C(OC2OC(C)C(OS(=O)(=O)O)C(OC3OC(C)C(OC4OC(C)C(OS(=O)(=O)O)C(OS(=O)(=O)O)C4OS(=O)(=O)O)C(OS(=O)(=O)O)C3OS(=O)(=O)O)C2OS(=O)(=O)O)C(OS(=O)(=O)O)C1OS(=O)(=O)O` (centres unmarked) gave a prothrombin time of 15 ± 0.2 s (human plasma; 128 µg/mL).
`Cc1ncsc1-c1ccc(C(C)NC(=O)C2CC(O)CN2C(=O)C(NC(=O)CCCCCCCCCCN2CCCC(Nc3ncc(Cl)c(Nc4ccccc4S(=O)(=O)C(C)C)n3)C2)C(C)(C)C)cc1` (centres unmarked) — result for “log2 fold change”: -3.83 (22Rv1; RNA-seq, measured: NNMT mRNA; concentration not given; reference: DMSO).
The prothrombin time of `COC1OC(C)C(OC2OC(C)C(OS(=O)(=O)O)C(OS(=O)(=O)O)C2OS(=O)(=O)O)C(OS(=O)(=O)O)C1OS(=O)(=O)O` (centres unmarked) is reported as 15.5 ± 0.7 s (human plasma; 128 µg/mL).
For `CCCCCCCCCCCCCCCC(=O)OCC(CSC[C@H](N)C(=O)N[C@@H](CO)C(=O)N[C@@H](CCCCN)C(=O)N[C@@H](CCCCN)C(=O)N[C@@H](CCCCN)C(=O)N[C@@H](CCCCN)C(=O)NCCCCCC(=O)N[C@@H](CCCCN)C(=O)N[C@@H](CC(C)C)C(=O)N[C@H](C(=O)N[C@@H](Cc1ccccc1)C(=O)N[C@@H](Cc1ccccc1)C(=O)N[C@@H](Cc1ccc2ccccc2c1)C(=O)O)C(C)C)OC(=O)CCCCCCCCCCCCCCC` (some centres unmarked), “amyloid plaque load” read 0.456 and 0.564 and 0.459 and 0.269 and 0.51 (thioflavin S staining; APP/PS1 transgenic mouse, hippocampus; intrahippocampal, 5 d, unit not given; reference: injected over adjacent side).
Under “serum uric acid”, `O=C(NS(=O)(=O)c1cccs1)c1cc2ccccc2n1Cc1ccc(Br)c2ccccc12` is recorded as 197 ± 26.5 µM (male mouse, acute hyperuricaemia model, serum; oral, 2 mg/kg, 4 h).
For `Cc1[nH]nc2c1N=C(c1ccccc1Cl)c1cnc(N3CCOCC3)cc1N2`, “tumour growth inhibition” read 96% (mouse sample E TNBC PDX; oral, 15 mg/kg, 120 h, 5 days per week).
With `Oc1cc2c(cc1O)C(c1cccc3[nH]ccc13)NCC2` (centres unmarked) the IC50 was 8.75 µM (ABTS scavenging; 10 min, dark).
`COC1OC(C)C(OC2OC(C)C(OS(=O)(=O)O)C(OC3OC(C)C(OC4OC(C)C(OS(=O)(=O)O)C(OC5OC(C)C(OS(=O)(=O)O)C(OS(=O)(=O)O)C5O)C4O)C(OS(=O)(=O)O)C3O)C2O)C(OS(=O)(=O)O)C1O` (centres unmarked) gave a prothrombin time of 15.2 ± 0.5 s (human plasma; 128 µg/mL).
`CC(C)C[C@H](NC(=O)[C@H](CC(=O)O)NC(=O)CNC(=O)[C@@H](N)CCCNC(=N)N)C(=O)N[C@@H](C)C(=O)N[C@H](C(=O)N[C@@H](CC(C)C)C(=O)N[C@@H](CCCNC(=N)N)C(=O)N[C@@H](CCC(N)=O)C(=O)N[C@@H](CC(C)C)C(=O)N[C@@H](C)C(=O)N[C@@H](CCC(N)=O)C(=O)N[C@@H](CCC(=O)O)C(=O)N[C@@H](CC(=O)O)C(=O)NCC(=O)N[C@H](C(=O)N[C@H](C(=O)NCC(=O)N[C@H](C(=O)N[C@@H](CCCNC(=N)N)C(=O)NCCOCCOCCOCCOCCOCCOCCOCCOCCOCCOCCOCCOCCC(=O)N[C@@H](CS)C(N)=O)C(C)C)C(C)C)C(C)C)[C@@H](C)O`: “fluorescence signal ratio” 0.73 and 180 and 6.12 (ex vivo NIR imaging; NOD/SCID mice, xenograft, H460 xenograft; intravenous, 30 µg, 24 h; reference: spleen).
`NC[C@@H](C(=O)Nc1ccc(-c2cn[nH]c2)cc1)c1ccccc1` gave an IOP of 30.9 mmHg (tonometry; NZW rabbit, magnetic bead-induced ocular hypertension; ocular, 0.03%, 32 h).
With `O=C(N/N=C/c1ccc2c(ccc[n+]2Cc2ccccc2)c1)c1cccc(C(=O)N/N=C/c2ccc3c(ccc[n+]3Cc3ccccc3)c2)c1` the ΔTm was 8.3 ± 0.2 °C (MYC parallel G4 DNA; FRET melting; 1 µM, DNA 0.2 µM, with: duplex DNA competitor 10 µM).
Under “prothrombin time prolongation”, `COC1OC(C)C(OC2OC(C)C(OS(=O)(=O)O)C(OC3OC(C)C(OC4OC(C)C(OS(=O)(=O)O)C(OC5OC(C)C(OC6OC(C)C(OS(=O)(=O)O)C(OC7OC(C)C(OC8OC(C)C(OS(=O)(=O)O)C(OC9OC(C)C(OC%10OC(C)C(OS(=O)(=O)O)C(OS(=O)(=O)O)C%10O)C(OS(=O)(=O)O)C9O)C8O)C(OS(=O)(=O)O)C7O)C6O)C(OS(=O)(=O)O)C5O)C4O)C(OS(=O)(=O)O)C3O)C2O)C(OS(=O)(=O)O)C1O` (centres unmarked) is recorded as 0.97 fold (human plasma; 128 µg/mL; reference: control).
`CC(C)OC(=O)[C@H](CO)NCc1cc(Cl)c(OCc2cccc(-c3ccccc3)c2Br)cc1OCc1cccnc1` gave a tumour volume of 1290 ± 514 mm³ (hPD-L1 MC-38 tumour, humanised hPD-1 C57BL/6 mouse; oral, 5 mg/kg × 21, day 20).
Under “prothrombin time prolongation”, `COC1OC(C)C(OC2OC(C)C(OS(=O)(=O)O)C(OC3OC(C)C(OC4OC(C)C(OS(=O)(=O)O)C(OC5OC(C)C(OC6OC(C)C(OS(=O)(=O)O)C(OS(=O)(=O)O)C6O)C(OS(=O)(=O)O)C5O)C4O)C(OS(=O)(=O)O)C3O)C2O)C(OS(=O)(=O)O)C1O` (centres unmarked) is recorded as 1.04 fold (human plasma; 128 µg/mL; reference: control).
For `COc1cnc2cccc(N3CCc4c(cc(Cn5ccnc5)cc4-c4cn(C)nc4C(F)(F)F)C3=O)c2c1`, the tumour volume was 105 mm3 and 103 mm3 and 144 mm3 and 164 mm3 and 120 mm3 (BALB/c nude mice, MV4-11 xenograft; intraperitoneal, 100 mg/kg, day 17).
For `COC1OC(C)C(O)C(OC2OC(C)C(O)C(OC3OC(C)C(O)C(OC4OC(C)C(O)C(OC5OC(C)C(O)C(OC6OC(C)C(O)C(OS(=O)(=O)O)C6OS(=O)(=O)O)C5OS(=O)(=O)O)C4OS(=O)(=O)O)C3OS(=O)(=O)O)C2OS(=O)(=O)O)C1OS(=O)(=O)O` (centres unmarked), “prothrombin time prolongation” read 0.98 fold (human plasma; 128 µg/mL; reference: control).
`Cc1cccc(C)c1CNc1cc(C(=O)N2CCC2)cn2c(C)c(C)nc12` gave an ED50 of 0.66 mg/kg (gastric acid secretion, inhibitor; rat, pylorus-ligated; oral, with: histamine).

Repeated from above:
For `C[n+]1cccc2cc(/C=N/NC(=O)C(=O)N/N=C/c3ccc4c(ccc[n+]4C)c3)ccc21`, the ΔTm was 3 ± 0.9 °C (MYC parallel G4 DNA; FRET melting; 1 µM, DNA 0.2 µM).
For `COC1OC(C)C(O)C(OC2OC(C)C(O)C(OC3OC(C)C(O)C(OC4OC(C)C(O)C(OC5OC(C)C(O)C(OC6OC(C)C(O)C(OS(=O)(=O)O)C6OS(=O)(=O)O)C5OS(=O)(=O)O)C4OS(=O)(=O)O)C3OS(=O)(=O)O)C2OS(=O)(=O)O)C1OS(=O)(=O)O` (centres unmarked), “prothrombin time prolongation” read 0.98 fold (human plasma; 128 µg/mL; reference: control).
`CC(C)C[C@H](NC(=O)[C@H](CC(=O)O)NC(=O)CNC(=O)[C@@H](N)CCCNC(=N)N)C(=O)N[C@@H](C)C(=O)N[C@H](C(=O)N[C@@H](CC(C)C)C(=O)N[C@@H](CCCNC(=N)N)C(=O)N[C@@H](CCC(N)=O)C(=O)N[C@@H](CC(C)C)C(=O)N[C@@H](C)C(=O)N[C@@H](CCC(N)=O)C(=O)N[C@@H](CCC(=O)O)C(=O)N[C@@H](CC(=O)O)C(=O)NCC(=O)N[C@H](C(=O)N[C@H](C(=O)NCC(=O)N[C@H](C(=O)N[C@@H](CCCNC(=N)N)C(=O)NCCOCCOCCOCCOCCOCCOCCOCCOCCOCCOCCOCCOCCC(=O)N[C@@H](CS)C(N)=O)C(C)C)C(C)C)C(C)C)[C@@H](C)O`: “fluorescence signal ratio” 0.73 and 180 and 6.12 (ex vivo NIR imaging; NOD/SCID mice, xenograft, H460 xenograft; intravenous, 30 µg, 24 h; reference: spleen).
